Assay results of several laboratories.
Every numbered part comes from another study and shows a few of its results, in no order.

Sample 1 — technique: universal PBM; molecule type: double-stranded DNA, one strand shown; sample: in vitro; tested at: 600 nM; direction: higher = stronger binding
Target: Sal-like protein 4, full length isoform A (SALL4, Homo sapiens, UniProt Q9UJQ4, residues 1-1053)
Sequence of UniProt Q9UJQ4 (whole entry, looked up): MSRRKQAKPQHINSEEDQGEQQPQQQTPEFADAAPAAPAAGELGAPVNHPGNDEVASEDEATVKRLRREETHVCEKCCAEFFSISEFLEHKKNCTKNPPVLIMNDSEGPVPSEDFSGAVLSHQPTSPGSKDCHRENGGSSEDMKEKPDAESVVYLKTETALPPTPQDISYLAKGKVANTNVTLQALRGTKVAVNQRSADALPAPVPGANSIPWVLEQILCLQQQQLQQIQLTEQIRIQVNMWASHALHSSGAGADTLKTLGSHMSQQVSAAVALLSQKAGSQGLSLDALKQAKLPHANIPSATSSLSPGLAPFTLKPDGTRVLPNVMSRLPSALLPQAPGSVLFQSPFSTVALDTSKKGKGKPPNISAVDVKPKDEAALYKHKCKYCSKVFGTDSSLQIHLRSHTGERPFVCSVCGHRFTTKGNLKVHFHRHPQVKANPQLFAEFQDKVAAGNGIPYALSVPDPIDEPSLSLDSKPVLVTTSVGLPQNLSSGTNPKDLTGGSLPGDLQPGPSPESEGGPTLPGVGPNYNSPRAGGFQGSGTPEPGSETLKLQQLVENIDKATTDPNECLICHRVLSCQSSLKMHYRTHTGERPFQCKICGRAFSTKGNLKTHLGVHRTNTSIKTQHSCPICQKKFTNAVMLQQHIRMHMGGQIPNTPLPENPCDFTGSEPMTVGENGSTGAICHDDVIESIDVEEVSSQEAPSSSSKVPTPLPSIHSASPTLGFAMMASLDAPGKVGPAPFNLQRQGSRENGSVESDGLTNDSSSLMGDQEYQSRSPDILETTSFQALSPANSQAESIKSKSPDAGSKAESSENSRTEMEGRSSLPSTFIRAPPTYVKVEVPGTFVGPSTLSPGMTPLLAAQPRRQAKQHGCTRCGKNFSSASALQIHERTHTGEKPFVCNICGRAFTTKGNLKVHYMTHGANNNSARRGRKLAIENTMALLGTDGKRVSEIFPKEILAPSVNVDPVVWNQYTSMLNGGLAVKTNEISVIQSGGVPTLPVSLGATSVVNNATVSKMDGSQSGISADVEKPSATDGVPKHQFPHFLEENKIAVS
Setting: 8-mer, flanks averaged, mean of replicates
Sequence	E-score
GATTCACA	0.0663
AGATGCTG	-0.118
ATGTCAAT	0.248
TATAAGCA	0.279
AGAGTGTA	0.0153
CCAACTGC	-0.23
CTGCCGAA	-0.105
AACATAGA	0.097
CGCATTGA	-0.00229
CCATTGGG	-0.176
GACACAGC	-0.152
AGCGTAGA	-0.105
ATCCACAA	0.16
ATGAGGCC	-0.178
ATAATACG	0.27
GCATGCAC	-0.0639
ATGAAACC	0.136
CCAGTAAG	0.0248
AGCAAACG	-0.146
TAAAAACA	0.278
AGGACGAG	-0.132

Sample 2 — technique: RNA Bind-n-Seq; molecule type: RNA; sample: in vitro; tested at: 100 nM; reference: input RNA pool; direction: higher = stronger binding
Target: RING finger protein unkempt homolog, zinc fingers 1-6, SBP tag (UNK, Homo sapiens, UniProt Q9C0B0, residues 30-357)
Sequence of UniProt Q9C0B0 (30-357, looked up): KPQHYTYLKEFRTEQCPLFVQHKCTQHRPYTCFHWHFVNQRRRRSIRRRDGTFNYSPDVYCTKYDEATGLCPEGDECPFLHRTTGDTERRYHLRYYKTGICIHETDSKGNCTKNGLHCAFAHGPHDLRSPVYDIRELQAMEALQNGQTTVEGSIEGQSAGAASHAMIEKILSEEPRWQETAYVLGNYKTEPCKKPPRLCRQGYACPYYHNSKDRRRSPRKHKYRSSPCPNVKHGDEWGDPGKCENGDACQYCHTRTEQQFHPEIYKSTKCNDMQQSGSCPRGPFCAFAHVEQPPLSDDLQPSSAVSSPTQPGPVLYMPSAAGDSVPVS
Setting: RNA with constant flanks, vertebrate orthologous sites, ends assumed
Constant ends, left off below: GGGAGUUCUACAGUCCGACGAUC … CAACAGAGGAUUGAGCAUCA
Sequence	bound/input enrichment
GGGUCUACUGACCACUCACCAUUAAUGUCUGGUAUCUGUAAAACACUUUUUUUUUGUUCUUAGUCUUUUUCUUGUAUAAUUGAUGUUCUUUAAAAUUGUUAAUGUAUAACAGGGCUUAUG	1.2 ratio
UGUGAGCGUCUACAGACAGCUCACCAUUUUUGUCCUGUAUCUGUAAACACUUUUUGUUCUUAGUCUUUUUCUUGUAAAAUUGAUGUUCUUUAAAAUCGUUAAUGUAUAACAGGGCUUAUG	0.303 ratio
AUUCAAACCUGUGGUGCCCUGGCCUCAUGUUGAAGGAGUAGAAGUGGACUUAGAAUCUAUUAGAAGAAAAAACAAGGCCAAAAAAGAACAGGAGCGCCAUGCUGGAGGAGAUUCCCAAAA	0.522 ratio
CUACUAUAAACAACUCAGGGCAGUAUUCUCGAUAUCCUUACAGUAACCUAAAUCAGGGAUUAGUUAACAAUACAGGGAUGAAUCAAAAUUUAGGCCUUACGAAUAAUACCCCAAUGAAUC	1.63 ratio
UUUUAUUGAUCAGGUCUGUAAAUGUGUACUAAAAAAAUCAGAGUUUAUUUAUAAACAGAAUAGUUUAUUUAAAGAGAAGGUCUUUCUUUAUUGAUAUUCUGGUAUGCAUUAAUUCCAUUU	0.222 ratio
GGCUACAGGGAGAAGAGCUCACAAACUCAAACUAUUCAAGAGUUUCUAAUAGUUAAAAGCUAGGAAAGAUUAGGACAACUUUACAAAUGAGCAGUUAAAAAUAAAACAGAAGAGAGAGGA	1.13 ratio
AAAUAUCCCAGUUUACUGUGUUGAGUUGGCAUUGUACAGAAAUAAACAGCCAUAUUGGUCUAGAAACGUUAAACUUAAUUUUUUUCCAUUUGUACAGGGGUAACGCACUGUAUUAAAUAU	0.779 ratio
CCGUUCGCUCCUCCUGGGUGCGUGACCAAGGGCAAGGUGGCUGCCGGCACUGUGAGGGCUGCGUGGUGGUUUGGGGGCUGCGUCCAGGUCCUCAGAGCCUUGGAGCAGAAGUGACAGCCA	0.569 ratio
CUUCCCCCAACUUCAGUUUUUCAGGUUGUAGCUCAUCCAUCUUUUCUUCUUCCCCUCCUCUCACUGUUGCUUUCUUUUCCUUUCUGUCUGCCCAACUCCAGACAUAUGAGCUCUUCCCCU	1.06 ratio
AAUCAUGGAGGAAAAGCUAUUAGAACAAUUUCAUGAUGUUGAUAUGAGUUUAUUUUUAGUUCAUUAGUUUAGAAAUUUUAGGGUUCUUGUUUAGCAACAAUAGCAACUAACUGUUAAGUA	1.53 ratio
GAAGACAGUGGUUGUACAGUAUCAUUUCAUUUAAAAACUAUAAACAUUUUGUUUUGAAGCUAGGCAUUUAAACUGGAAUAGCUAUUAUACCCCUGAGAAUGGGGCAGUUGUGCCCUUGAC	0.777 ratio

Sample 3 — technique: protein binding microarray; molecule type: double-stranded DNA, one strand shown; sample: in vitro; tested at: not given; reference: not given; direction: higher = stronger binding
Target: Histone acetyltransferase KAT6A, winged helix 1, GST fusion (KAT6A, Homo sapiens, UniProt Q92794, residues 1-85)
Setting: 8-mer, flanks averaged, mean of 2 arrays, mostly near background
Residues (chain): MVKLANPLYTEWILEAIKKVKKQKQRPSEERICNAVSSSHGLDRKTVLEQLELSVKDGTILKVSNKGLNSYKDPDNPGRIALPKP
Sequence	E-score
AAATGGAA	-0.194
CAGACAAA	-0.238
CAATTACC	-0.0167
AAGGCCTG	-0.0514
GAGCGCTA	0.264
AGTAAGCG	0.0866
CAACCAGG	-0.225
GTTGTGAA	-0.305
CGGTGCAA	0.123
GTAAAAAA	0.0427
CCTCTTCG	0.0205
CCCAAGGA	-0.0756
CGGAGTAG	0.236
AAAGTGCA	-0.143
TCGTAAAA	-0.0202
ATAAAGTC	-0.0472
TGAAAGCA	-0.274
ACTCCCCG	0.271
CCTGGTGA	-0.202
ACGTAGAC	-0.0539
CGCGTCCA	0.305
GTATTCCA	-0.139
CCTGCACG	-0.0886
ATACTGAC	-0.074
GCCGTACA	0.241

Sample 4 — technique: RNA Bind-n-Seq; molecule type: RNA; sample: in vitro; tested at: 365 nM; reference: no-protein control; direction: higher = stronger binding
Target: RNA binding protein fox-1 homolog 2, RRM domain, GST-SBP tag (RBFOX2, Homo sapiens, UniProt O43251-10, residues 100-194)
Setting: natural RNA segment, single round, ends assumed
Constant ends, left off below: GGGAGUUCUACAGUCCGACGAUC … UGGAAUUCUCGGGUGCCAA
Construct (chain): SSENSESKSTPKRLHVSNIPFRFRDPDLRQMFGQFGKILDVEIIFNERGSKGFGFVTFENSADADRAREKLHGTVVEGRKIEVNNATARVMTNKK
Sequence	RBNS enrichment (R)
AUGGGCAUGGCAUGUGAAGCAAUGUCCUGCAGAUGGAUUACCACCUUUUAUUUCUGCCAGCUAACAUCCUCCCAGCCUCCUGCCUACUACUGUAGACUCCGGUGUGACCC	0.573
CACUUCGGAGUCAAAUCAUACACUAGGCCUUUGAUGCUUUAAUUCUUCUUCAGUUCAUUAAAAGUAACUACUAAGGAAAGGUUAAAAACUUCCCCUCAAAAAGGAAUCAA	0.356
UUACAUUUUGAGGAAAAAGAACAAAAAAGAAGGUUAUUGCAAAACUGAUGAUGCCCAUGAUACAAUUAGAAGUAUGUUAAAGAAGCGUGGGCAUUACAGAGAGCAGAAAG	2.84
AUCUAUAUAUAGUGUUUCACAAAGCUUAGAUCUUUAACCUUGCAGCUGCCCCACAGUGCUUGACCUCUGAGUCAUUGGUUAUACAGUGUAGUCCCAAGCACAUAAACUAG	0.295
ACAUGCAACCCAGUCCCCUCUGACGGCAGAAAUUUGUGACUGAGAUGUGACAUUUGGGAUUCCCCAUCACUUGUCAUGCCCUCAGCACCCAGCUUGUGCCAUUGGGCAUU	1.05
AGCGGGCAGGAACUCUAGCCACCUUUCUCUGUUACCUGCAGCUGAUUGGCAAGGCUCCUAUGGAGCUCCCAGAAGCCUCAGCUAGGAAAAUGAGCCCUCACUUCAGCCUG	0.64
AAACGGAGACAUUGACCCCUCCCUCCAUGUGGUAAACCACUCCAGAAUGGCCACCAGGCUUCCCAGAGUUCUAUGGUCUUCUUCCCAAGAGAGUUUUUAAUUGUAAAUGC	0.401
UUUGAGGCUGGGUGAAGUUAAAACACCUUUCCUUAUGUCUCCUGACCUGAAAUUGUAUAGUGUUGAUUUGUGCUGAGAUCAAGAGGCAGGUUAGAAGAACCUGACAUCCA	0.668
AAGGAAAUUCUGUCUGGUAGGUGCAAAGGGCUUCAUGGAUUUGGAAACCUGGAGGCAGGAACAUAGCAGAUUUAAGGGGUACCCAGCUGUGGAAGGUCAUUCCUGAGAAG	0.529
UGAUUUUAGUUUUUCAUUUCUCAAAUAGGAAUACUACCUUUGAAUUCAAUAAAAUUCACUGCAGGAUGACCAGUUACAUGCUGUUUGUUCCAUAUGCUUUGUGUGUUGCU	0.52
AAUCUGGGUCCUCUGCAUUUCUGUAUAACUUACAAGGUCUGGUUGUCAGUUUUUGCAAAAAGGCCUGCUGGGGUUUCCAUAGGGAAUGUUUUGAAUCUAUAGAUGAGUCA	0.499
UACAGAAUUGCCUGUUUGUUUCAAUGUCUCCCUCCACUUGGCUCUUAGGGGAAUUAAGGACAGGCCUAGAGUUAAAACACUUGUCUCCUAGUGUCACCUCUGCCAGCAGA	0.267

A few entries again (sample 4):
Sequence	RBNS enrichment (R)
AUCUAUAUAUAGUGUUUCACAAAGCUUAGAUCUUUAACCUUGCAGCUGCCCCACAGUGCUUGACCUCUGAGUCAUUGGUUAUACAGUGUAGUCCCAAGCACAUAAACUAG	0.295
ACAUGCAACCCAGUCCCCUCUGACGGCAGAAAUUUGUGACUGAGAUGUGACAUUUGGGAUUCCCCAUCACUUGUCAUGCCCUCAGCACCCAGCUUGUGCCAUUGGGCAUU	1.05
AGCGGGCAGGAACUCUAGCCACCUUUCUCUGUUACCUGCAGCUGAUUGGCAAGGCUCCUAUGGAGCUCCCAGAAGCCUCAGCUAGGAAAAUGAGCCCUCACUUCAGCCUG	0.64
AAACGGAGACAUUGACCCCUCCCUCCAUGUGGUAAACCACUCCAGAAUGGCCACCAGGCUUCCCAGAGUUCUAUGGUCUUCUUCCCAAGAGAGUUUUUAAUUGUAAAUGC	0.401
UUUGAGGCUGGGUGAAGUUAAAACACCUUUCCUUAUGUCUCCUGACCUGAAAUUGUAUAGUGUUGAUUUGUGCUGAGAUCAAGAGGCAGGUUAGAAGAACCUGACAUCCA	0.668
AAGGAAAUUCUGUCUGGUAGGUGCAAAGGGCUUCAUGGAUUUGGAAACCUGGAGGCAGGAACAUAGCAGAUUUAAGGGGUACCCAGCUGUGGAAGGUCAUUCCUGAGAAG	0.529
UGAUUUUAGUUUUUCAUUUCUCAAAUAGGAAUACUACCUUUGAAUUCAAUAAAAUUCACUGCAGGAUGACCAGUUACAUGCUGUUUGUUCCAUAUGCUUUGUGUGUUGCU	0.52
